Experimental data gathered from unrelated publications.
Parts stem from different laboratories: compare values within a part only.

Set 1 — technique: protein binding microarray; form: double-stranded DNA, one strand shown; matrix: in vitro; concentration: not given; relative to: not given; direction: higher = stronger binding
Target: Histone acetyltransferase KAT6A, both winged helices, GST fusion (KAT6A, Homo sapiens, UniProt Q92794, residues 1-181)
Notes: 8-mer, flanks averaged, mean of 2 arrays, mostly near background
Residues (chain): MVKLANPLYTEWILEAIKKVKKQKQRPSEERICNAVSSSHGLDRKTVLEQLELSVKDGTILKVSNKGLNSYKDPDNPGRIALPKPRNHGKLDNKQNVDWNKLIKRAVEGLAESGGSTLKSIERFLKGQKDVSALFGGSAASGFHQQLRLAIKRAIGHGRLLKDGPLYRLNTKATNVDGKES
| Strand | E-score |
| --- | --- |
| GCACGTCC | 0.0455 |
| CAGTGCGG | 0.251 |
| CGACCGTA | 0.243 |
| CACGGCGG | 0.335 |
| CCTAGCCA | -0.218 |
| ATCTCCGG | 0.0809 |
| CTATTAAA | -0.181 |
| CTGCTGAC | -0.0454 |
| AAGTGTTA | -0.146 |
| GACTTCAA | -0.112 |
| ACGAGAGT | -0.174 |
| ATTCACCA | -0.177 |
| ACTCGTAC | -0.0544 |
| AACCCATT | -0.0869 |
| CCTAGCTA | -0.222 |
| ATGGGCTA | -0.166 |

Set 2 — technique: RNAcompete; form: RNA; matrix: in vitro; concentration: 20 nM; notes: 7-mer, probes averaged, single round; relative to: mean of 7-mers; direction: higher = stronger binding
Target: PABPC1L2, full length, GST fusion (mouse, UniProt A0ABA7IW68)
Target sequence (chain): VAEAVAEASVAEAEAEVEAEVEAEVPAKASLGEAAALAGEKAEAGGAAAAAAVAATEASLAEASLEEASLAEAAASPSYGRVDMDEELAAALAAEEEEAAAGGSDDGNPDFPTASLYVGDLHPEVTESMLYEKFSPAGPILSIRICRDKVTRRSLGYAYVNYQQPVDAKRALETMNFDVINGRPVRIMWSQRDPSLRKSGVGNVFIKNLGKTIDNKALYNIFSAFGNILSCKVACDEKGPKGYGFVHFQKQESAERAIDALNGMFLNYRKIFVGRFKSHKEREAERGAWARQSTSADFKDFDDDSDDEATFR
| Strand | 7-mer Z-score |
| --- | --- |
| UCCAGUG | -0.188 |
| CUAGCUC | -0.311 |
| CGGAUUG | -0.137 |
| CGAAGAC | -0.0464 |
| UUGUCAC | -0.191 |
| UACCGUA | -0.267 |
| CUGUUUA | -0.476 |
| CGUAGUU | -0.307 |
| UGGACGG | 0.321 |
| CGGCUGU | -0.0917 |
| UGAGGAG | 0.0605 |
| GCGCGCG | -0.327 |
| CCAACUC | -0.296 |
| AGGGUAC | 0.0768 |
| UUUCCGG | -0.4 |
| UUUACAG | -0.0899 |
| GGUCUCG | -0.202 |
| CUUACGG | -0.155 |
| GCUAUUA | -0.0681 |

Set 3 — technique: RNA Bind-n-Seq; form: RNA; matrix: in vitro; concentration: 365 nM; relative to: no-protein control; direction: higher = stronger binding
Target: RNA binding protein fox-1 homolog 2, RRM domain, GST-SBP tag (RBFOX2, Homo sapiens, UniProt O43251-10, residues 100-194)
Notes: natural RNA segment, single round, ends assumed
Shared flanks, not repeated: GGGAGUUCUACAGUCCGACGAUC … UGGAAUUCUCGGGUGCCAA
Target sequence (chain): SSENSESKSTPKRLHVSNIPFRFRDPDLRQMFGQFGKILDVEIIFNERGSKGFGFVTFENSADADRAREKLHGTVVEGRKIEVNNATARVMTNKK
| Strand | RBNS enrichment (R) |
| --- | --- |
| UCUCACAGAGCUUUAAAUUAUUCUCCUAAGUUUCUUGUGGAUGAAGCGCUCUCAUCUAACCUAUGUUGGGUUGUGCCACCACGUCUGUACCAGAUGUCCCAUCCGGCAUC | 0.288 |
| GGUAUUUUUACUUUUAUUUUUUGAUCUGAACUGGGAGCUAUAUUUAGCCCUCUGCCUCUCCAAAGCAUCAGAACCACCUUCAGUCUGGAGAAGGGGAAGCCUCUUGGAGA | 0.729 |
| AUACUGACUGCUAAGUGUACUAUACUGUUUGCUUUACUAAUCACCUAAUUCAUUGCAGUUCAUACUUAUUGACUCAGAGUUUAAAACCACAAUCUGUAGGCUUUAAGAAU | 0.423 |
| CCCAUUGCCUAUUUGCACCCUAUGCAUGUGGUCAUAUGUAAGCUGGAUCAUCUCCACAGCUGUGACCAGAAAUCCUCACGAAGGGCACAUUUCUAGGUAGACCCAAAUGG | 8.07 |
| AUACCAGACCUCUGAAUUUGUAUUUUUUCUUGUUAACCAUUUUAAUUUGUUGGCUGGAUGUAUAAAGAUGUUUAAAAAAUUCAGUUGCUUUUUUGGGGUAAUUUGAAUUA | 0.626 |
| UUGGGCUGAAAUAAGUAACAGUCUGAGGCAGCCUGCGCCACAGUAAAGUGUGUUGGUUUGCUUGGAAGUCUGGAGUCCUGUGAGUUCUUUUUUUUUUUUUUUCCCCAUCC | 0.703 |
| UUGAAGUUAUAUAUAUAUAAAACAAGUGUCUAUUUCUAGCUGAAAGAGUUUACCUCUUCUAGACAUUUAUGCCCAAUGGUGUCACACAUGAUCAUUUGCUCCUGCUCUAA | 0.503 |
| CACCCCACCUUUUUCCUUCUCCCCAAUUACUCCCCUGAAUCAAUGUACAAAUCAGCACCCACAUCCCCUUUCUUGACAAAUGAUUUUUCUAGAGAACUAUGUUCUUCCCU | 1.69 |

Set 4 — technique: RNA Bind-n-Seq; form: RNA; matrix: in vitro; concentration: 200 nM; notes: whole 134-nt RNA, ends assumed; with: 150 mM KCl; relative to: input library; direction: higher = stronger binding
Target: Fragile X messenger ribonucleoprotein 1, C-terminal low-complexity region (Fmr1, Mus musculus, UniProt P35922)
Shared flanks, not repeated: GGGAGUUCUACAGUCCGACGAUC … UGGAAUUCUCGGGUGUCAAGG
| Strand | log2 enrichment |
| --- | --- |
| AGUCCUGUGCUACACAUCGUAUGUACCGAAUCGGGAAAAGGGGAAAAGGGGAAAAGGAAAGUAUUAUGUUACGCCGUUCGGAUCUGCACU | 0.0407 |
| AAGUCCUGUGCUACACAUCGUAUGUACCGAAUCGGGAAAGGGAAAAAGGGUUUGGGAAAGUAUUAUGUUACGCCGUUCGGAUCUGCACUU | 0.19 |
| UCCUGUGCUACACAUCGUAUGUACCGAAUCGGGGCCCCCGGGCCCCCGGGGCCCCCGGGAAAGUAUUAUGUUACGCCGUUCGGAUCUGCA | -1.05 |
| UACUAUGAAGCCUUGUGCAAAUCCCUCGACUGGCAGAUAGACGUGGACCUACUCAAUAAAAUGAAGAAGGCAAAUGAAGAUGAGUUGAAG | -0.435 |
| CAAAGACAACACGCACCCACACAGACACAGAGGGAAGGGGUUGGGAUGGGGACAGGGUGCACAGCAGGGCGGGGUAGGACCCCAGCCCCU | 1.16 |
| CACAGACAACACGCACCCACACAGACACAGAGGGAAGGGGUUGGGAUGGGGACAGGGUGCAUAGCAGGGCGGGGUAGGACCCCAGCCCCU | 1.18 |
| CUCAAGUCCUGUGCUACACAUCGUAUGUACCGAAUCGGGUUGGUUGGUUGGGGAAAGUAUUAUGUUACGCCGUUCGGAUCUGCACUUCCA | 0.135 |
| CUCAAGUCCUGUGCUACACAUCGUAUGUACCGAAUCGGAAGGAAGGGAAGGGGAAAGUAUUAUGUUACGCCGUUCGGAUCUGCACUUCCA | -0.0249 |
| CACAGACAACACGCACCCACACAGACACAGAGGGAAGGGGUUGGGAUGGGGACCGGGUGCACAGCAGGGCGGGGUAGGACCCCAGCCCCU | 1.37 |

For quick reference, copied from above (set 1):
| Strand | E-score |
| --- | --- |
| GCACGTCC | 0.0455 |
| CGACCGTA | 0.243 |
| CCTAGCCA | -0.218 |
| CAGTGCGG | 0.251 |
| AAGTGTTA | -0.146 |
| GACTTCAA | -0.112 |
| ATCTCCGG | 0.0809 |
